Results gathered from unrelated publications.
Protocols differ between the studies behind these lines. Numbers after ± are the reported error.
Urease: Urease (Canavalia ensiformis, UniProt P07374)
NPY2R: Neuropeptide Y receptor type 2 (NPY2R, Homo sapiens, UniProt P49146)
MC4R: Melanocortin receptor 4 (MC4R, Homo sapiens, UniProt P32245)
Cnr2: Cannabinoid receptor 2 (Cnr2, Mus musculus, UniProt P47936)

Structure (SMILES)	target	test	system	conditions	Ki [µM]
O[C@@H]1[C@@H](O)[C@H](O)C[C@H]2N[C@@H]12	Exo-1,4-beta-xylosidase xlnD (xlnD, Emericella nidulans, UniProt Q5BAS1)	covalent inhibitor	Aspergillus nidulans	pH 4.5, ambient, added: 4MU-β-D-xyloside	36.7
CC1=C[C@@H](O/C=C2/C(=O)O[C@H]3c4ccccc4C[C@@H]23)OC1=O	RMS3 (Lathyrus oleraceus, UniProt A0A109QYD3)	cell-free assay, inhibitor	–	–	5.17
CC(=O)NCP(=O)(O)O	Urease	inhibitor	–	pH 7	> 1000
CC(C)C[C@H](NC(=O)[C@@H]1CCCN1C(=O)[C@@H](N)CCCCN)C(=O)N[C@@H](CCC(=O)O)C(=O)N[C@H](CN[C@@H](Cc1ccc(O)cc1)C(=O)N[C@@H](CCCNC(=N)N)C(=O)N[C@H](C(=O)O)C(C)C)Cc1ccccc1	Plasmepsin I (PMI, Plasmodium falciparum, UniProt Q7KQM4)	–	–	–	38 ± 6
C[C@H](NC(=O)[C@H](CCC(=O)O)NC(=O)[C@H](CO)NC(=O)[C@H](C)NC(=O)[C@H](CO)NC(=O)CSCCNC(=O)CCNC(=O)[C@H](O)C(C)(C)COP(=O)(O)OP(=O)(O)OC[C@H]1O[C@@H](n2cnc3c(N)ncnc32)[C@H](O)[C@@H]1OP(=O)(O)O)C(N)=O	ard1, with Naa15 (Schizosaccharomyces pombe, UniProt Q9UTI3)	competitive with acetyl-CoA	–	–	1.1 ± 0.1
CC(=O)N[C@@H](CCCNC(=N)N)C(=O)N[C@@H](Cc1ccc(O)cc1)C(=O)N[C@@H](CCCNC(=N)NC(=O)NCCCCN)C(=O)N[C@H](CC(C)C)C(=O)N[C@@H](CCCNC(=N)N)C(=O)N[C@@H](Cc1ccc(O)cc1)C(N)=O	NPY2R	ligand displacement, radioligand	–	–	> 5
COc1c(OCCOCCOCCOCCOCCOCCOc2cccc(C(=O)C3CCN(CCc4ccc(F)cc4)CC3)c2OC)cccc1C(=O)C1CCN(CCc2ccc(F)cc2)CC1	HTR2C (Homo sapiens, UniProt P28335)	ligand displacement, radioligand	–	–	0.05
CC[C@H](C)[C@H](NC(=O)CN)C(=O)N[C@H](C(=O)N[C@@H](CC(N)=O)C(=O)N[C@H](C(=O)N[C@@H](CC(C)C)C(=O)N[C@@H](CCC(N)=O)C(=O)N[C@@H](CCCCN)C(=O)N[C@@H](Cc1ccc(O)cc1)C(=O)N[C@@H](Cc1ccc(O)cc1)C(=O)N[C@H]1CSSC[C@@H]2NC(=O)[C@H](CCCCN)NC(=O)[C@H](CCCNC(=N)N)NC(=O)CNC(=O)[C@H](CCCNC(=N)N)NC(=O)[C@H]([C@@H](C)O)NC(=O)[C@H](CO)NC(=O)[C@@H]3CSSC[C@H](NC(=O)[C@H](CCC(N)=O)NC(=O)CNC(=O)CNC(=O)[C@H](CCC(N)=O)NC(=O)[C@H](C(C)C)NC(=O)[C@H](CCCNC(=N)N)NC1=O)C(=O)N[C@@H](C)C(=O)N[C@@H](C(C)C)C(=O)N[C@@H](CC(C)C)C(=O)N[C@@H](CO)C(=O)N[C@@H](CSSC[C@@H](C(=O)N[C@@H](CCCNC(=N)N)C(=O)N[C@@H](CCCNC(=N)N)C(=O)N[C@@H](CCCCN)C(=O)N[C@@H](CCCCN)C(N)=O)NC2=O)C(=O)N[C@@H](CC(C)C)C(=O)N1CCC[C@H]1C(=O)N[C@@H](CCC(N)=O)C(=O)N[C@@H](CCC(=O)O)C(=O)N[C@@H](CCC(=O)O)C(=O)N[C@@H](CCC(N)=O)C(=O)N[C@@H]([C@@H](C)CC)C(=O)NCC(=O)N[C@@H](CCCCN)C(=O)N3)[C@@H](C)O)[C@@H](C)CC	MC4R	ligand displacement in cells	–	–	0.147
CC(=O)N[C@@H](CCCNC(=N)N)C(=O)N[C@@H](Cc1ccc(O)cc1)C(=O)N[C@H]1CCCNC(=N)NC(=O)NCCCCNC(=O)[C@H](Cc2ccc(O)cc2)NC(=O)[C@H](CCCNC(=N)N)NC(=O)[C@H](CC(C)C)NC1=O	NPY2R	ligand displacement, radioligand	–	–	> 5
Cc1cc2c(cc1Cl)-c1c(c(C(=O)NC3CC4CC(C3C)C4(C)C)nn1-c1ccc(Cl)cc1Cl)C2 (stereo not drawn)	Cnr2	ligand displacement, radioligand	–	–	0.243
O=C(N[C@@H](Cc1ccc(F)cc1)C(=O)CCl)OCc1ccccc1	Serine protease 1 (PRSS1, Bos taurus, UniProt P00760)	–	–	–	> 200
Cc1cc2c(cc1Cl)Cc1c(C(=O)NC3CCCCC3)nn(-c3ccc(Cl)cc3Cl)c1-2	Cnr2	ligand displacement, radioligand	–	–	0.384
CN(C)CP(=O)(O)O	Urease	enzyme activity, inhibitor, absorbance	–	pH 7	21
CC[C@H](C)[C@H](NC(=O)CN)C(=O)N[C@H](C(=O)N[C@@H](CC(N)=O)C(=O)N[C@H](C(=O)N[C@@H](CC(C)C)C(=O)N[C@@H](CCC(N)=O)C(=O)N[C@@H](CCCCN)C(=O)N[C@@H](Cc1ccc(O)cc1)C(=O)N[C@@H](Cc1ccc(O)cc1)C(=O)N[C@H]1CSSC[C@@H]2NC(=O)[C@H](CCCCN)NC(=O)[C@H](CCCNC(=N)N)NC(=O)CNC(=O)[C@H](CCCNC(=N)N)NC(=O)[C@H]([C@@H](C)O)NC(=O)[C@H](CO)NC(=O)[C@@H]3CSSC[C@H](NC(=O)[C@H](CCCNC(=N)N)NC(=O)CNC(=O)CNC(=O)[C@H](CCCNC(=N)N)NC(=O)[C@H](C(C)C)NC(=O)[C@H](CCCNC(=N)N)NC1=O)C(=O)N[C@@H](C)C(=O)N[C@@H](C(C)C)C(=O)N[C@@H](CC(C)C)C(=O)N[C@@H](CO)C(=O)N[C@@H](CSSC[C@@H](C(=O)N[C@@H](CCCNC(=N)N)C(=O)N[C@@H](CCCNC(=N)N)C(=O)N[C@@H](CCCCN)C(=O)N[C@@H](CCCCN)C(N)=O)NC2=O)C(=O)N[C@@H](CC(C)C)C(=O)N1CCC[C@H]1C(=O)N[C@@H](CCCCN)C(=O)N[C@@H](C)C(=O)N[C@@H](CCC(=O)O)C(=O)N[C@@H](CCC(N)=O)C(=O)N[C@@H]([C@@H](C)CC)C(=O)NCC(=O)N[C@@H](CCCCN)C(=O)N3)[C@@H](C)O)[C@@H](C)CC	MC4R	ligand displacement in cells	–	–	0.222
Cc1cc(O)c2c(c1)C(=O)c1c(O)ccc(O)c1C2=O	Cholinesterase (BCHE, Equus caballus, UniProt P81908)	enzyme activity, inhibitor	–	–	12.3
CCCc1cc(C(=O)[C@H]2C=CN([C@@H]3O[C@H](COP(=O)(O)OP(=O)(O)OC[C@H]4O[C@@H](n5cnc6c(N)ncnc65)[C@H](O)[C@@H]4O)[C@@H](O)[C@H]3O)C=C2C(N)=O)ccn1	inhA (Mycobacterium leprae, UniProt Q9CBM1)	–	–	–	0.011 ± 0.006
CN(Cc1ccccc1)CP(=O)(O)O	Urease	inhibitor	–	pH 7	> 1000
CC[C@H](C)[C@H](NC(=O)CN)C(=O)N[C@H](C(=O)N[C@@H](CC(N)=O)C(=O)N[C@H](C(=O)N[C@@H](CC(C)C)C(=O)N[C@@H](CCC(N)=O)C(=O)N[C@@H](CCCCN)C(=O)N[C@@H](Cc1ccc(O)cc1)C(=O)N[C@@H](Cc1ccc(O)cc1)C(=O)N[C@H]1CSSC[C@@H]2NC(=O)[C@H](CCC(N)=O)NC(=O)[C@H](CCC(N)=O)NC(=O)CNC(=O)[C@H](CCC(N)=O)NC(=O)[C@H]([C@@H](C)O)NC(=O)[C@H](CO)NC(=O)[C@@H]3CSSC[C@H](NC(=O)[C@H](CCCNC(=N)N)NC(=O)CNC(=O)CNC(=O)[C@H](CCCNC(=N)N)NC(=O)[C@H](C(C)C)NC(=O)[C@H](CCCNC(=N)N)NC1=O)C(=O)N[C@@H](C)C(=O)N[C@@H](C(C)C)C(=O)N[C@@H](CC(C)C)C(=O)N[C@@H](CO)C(=O)N[C@@H](CSSC[C@@H](C(=O)N[C@@H](CCCNC(=N)N)C(=O)N[C@@H](CCCNC(=N)N)C(=O)N[C@@H](CCCCN)C(=O)N[C@@H](CCCCN)C(N)=O)NC2=O)C(=O)N[C@@H](CC(C)C)C(=O)N1CCC[C@H]1C(=O)N[C@@H](CCCCN)C(=O)N[C@@H](CCC(=O)O)C(=O)N[C@@H](CCC(=O)O)C(=O)N[C@@H](CCC(N)=O)C(=O)N[C@@H]([C@@H](C)CC)C(=O)NCC(=O)N[C@@H](CCC(N)=O)C(=O)N3)[C@@H](C)O)[C@@H](C)CC	MC4R	ligand displacement in cells	–	–	0.105
CC[C@H](C)[C@H](NC(=O)[C@H](CCC(=O)O)NC(=O)[C@H](Cc1ccc(F)cc1)NC(=O)[C@@H](C)NC(=O)[C@@H](N)Cc1ccc(O)cc1)C(=O)N[C@H](C(=O)NCC(N)=O)[C@@H](C)CC	Oprk1 (Mus musculus, UniProt P33534)	ligand displacement, radioligand	–	cell membranes	> 1
CC(C)[C@H](NC(=O)[C@H](CCCNC(=N)N)NC(=O)[C@H](C)NC(=O)[C@H](CCCNC(=N)N)NC(=N)N)C(=O)N[C@@H](CCCNC(=N)N)C(=O)NCc1ccc(C(=N)N)cc1	Furin (FURIN, Homo sapiens, UniProt P09958)	enzyme activity, inhibitor, fluorescence	–	–	1.19e-05
CC[C@H](C)[C@H](NC(=O)[C@H](CS)NC(=O)[C@H](CCC(N)=O)NC(=O)[C@H](CC(C)C)NC(=O)[C@H](CCCCN)NC(=O)[C@H](CCCNC(=N)N)NC(=O)[C@H](C)NC(=O)[C@@H](NC(=O)[C@H](CCC(N)=O)NC(=O)[C@@H](NC(=O)[C@H](CCC(=O)O)NC(=O)[C@H](C)NC(=O)[C@H](CCC(N)=O)NC(=O)[C@@H](N)Cc1c[nH]cn1)C(C)C)[C@@H](C)CC)C(=O)N[C@@H](C)C(=O)N[C@@H](CC(=O)O)C(=O)N[C@@H](CCC(N)=O)C(=O)N[C@@H](Cc1ccccc1)C(=O)N[C@@H](Cc1c[nH]cn1)C(=O)N[C@@H](CCCNC(=N)N)C(=O)N[C@@H](CC(C)C)C(=O)N[C@@H](Cc1c[nH]cn1)C(=O)N[C@H](C(=O)N[C@@H](CCC(N)=O)C(=O)N[C@@H](CCC(N)=O)C(=O)O)C(C)C	MCL1 (Homo sapiens, UniProt Q07820)	ligand displacement, FP	–	–	12
CCCCCc1cc(O)c2c(c1)OC(C)(C)C1CCC(C(=O)OC3OC(C(=O)O)C(O)C(O)C3O)=CC21 (stereo not drawn)	Cytochrome P450 2B6 (CYP2B6, Homo sapiens, UniProt P20813)	inhibitor	HEK293 overexpressing CYP2B6, recombinant microsomes	pH 7.4, total concentration, added: bupropion 12.5 to 100 µM	2 ± 1.2
CN1CCN(C(=O)N[C@@H](Cc2ccccc2)C(=O)N[C@H](/C=C/S(=O)(=O)c2ccccc2)CCc2ccccc2)CC1	CTSC (Bos taurus, UniProt Q3ZCJ8)	enzyme activity, inhibitor, fluorescence	–	pH 5.5	> 100
CCSc1nnc(-c2ccc(S(=O)(=O)NC(=O)COC(C)=O)cc2)o1	CA2 (Homo sapiens, UniProt P00918)	enzyme activity, inhibitor	–	–	0.0222

A few entries again:
Structure (SMILES)	target	test	system	conditions	Ki [µM]
COc1c(OCCOCCOCCOCCOCCOCCOc2cccc(C(=O)C3CCN(CCc4ccc(F)cc4)CC3)c2OC)cccc1C(=O)C1CCN(CCc2ccc(F)cc2)CC1	HTR2C (Homo sapiens, UniProt P28335)	ligand displacement, radioligand	–	–	0.05
CC[C@H](C)[C@H](NC(=O)CN)C(=O)N[C@H](C(=O)N[C@@H](CC(N)=O)C(=O)N[C@H](C(=O)N[C@@H](CC(C)C)C(=O)N[C@@H](CCC(N)=O)C(=O)N[C@@H](CCCCN)C(=O)N[C@@H](Cc1ccc(O)cc1)C(=O)N[C@@H](Cc1ccc(O)cc1)C(=O)N[C@H]1CSSC[C@@H]2NC(=O)[C@H](CCCCN)NC(=O)[C@H](CCCNC(=N)N)NC(=O)CNC(=O)[C@H](CCCNC(=N)N)NC(=O)[C@H]([C@@H](C)O)NC(=O)[C@H](CO)NC(=O)[C@@H]3CSSC[C@H](NC(=O)[C@H](CCC(N)=O)NC(=O)CNC(=O)CNC(=O)[C@H](CCC(N)=O)NC(=O)[C@H](C(C)C)NC(=O)[C@H](CCCNC(=N)N)NC1=O)C(=O)N[C@@H](C)C(=O)N[C@@H](C(C)C)C(=O)N[C@@H](CC(C)C)C(=O)N[C@@H](CO)C(=O)N[C@@H](CSSC[C@@H](C(=O)N[C@@H](CCCNC(=N)N)C(=O)N[C@@H](CCCNC(=N)N)C(=O)N[C@@H](CCCCN)C(=O)N[C@@H](CCCCN)C(N)=O)NC2=O)C(=O)N[C@@H](CC(C)C)C(=O)N1CCC[C@H]1C(=O)N[C@@H](CCC(N)=O)C(=O)N[C@@H](CCC(=O)O)C(=O)N[C@@H](CCC(=O)O)C(=O)N[C@@H](CCC(N)=O)C(=O)N[C@@H]([C@@H](C)CC)C(=O)NCC(=O)N[C@@H](CCCCN)C(=O)N3)[C@@H](C)O)[C@@H](C)CC	MC4R	ligand displacement in cells	–	–	0.147
CC(=O)N[C@@H](CCCNC(=N)N)C(=O)N[C@@H](Cc1ccc(O)cc1)C(=O)N[C@H]1CCCNC(=N)NC(=O)NCCCCNC(=O)[C@H](Cc2ccc(O)cc2)NC(=O)[C@H](CCCNC(=N)N)NC(=O)[C@H](CC(C)C)NC1=O	NPY2R	ligand displacement, radioligand	–	–	> 5
